Experimental data of several laboratories.
Each line is one published result; not all experiments were run side by side. Several values in a cell are separate wells, animals, samples, runs or records. ± gives the spread as reported. Values after ≈ are worked out from the molar mass of the structure shown.

| SMILES | organism | assay | system | setting | scale | measurement | value |
| --- | --- | --- | --- | --- | --- | --- | --- |
| CN(C)c1nc(NCc2cccc3ccccc23)c(/N=N/c2ccc(Cl)cc2)c(N(C)C)n1 | Ostrinia furnacalis | leaf dipping | – | 500 mg/L, 96 h | – | mortality | 96.7 ± 5.77% |
| CC[C@H](C)[C@H](NC(=O)[C@H](CCCCN)NC(=O)[C@H](CCCCN)NC(=O)[C@H](Cc1ccccc1)NC(=O)[C@H](Cc1ccccc1)NC(=O)[C@H](CCCCN)NC(=O)[C@H](CCCCN)NC(=O)[C@H](Cc1ccccc1)NC(=O)[C@H](CCCNC(=N)N)NC(=O)[C@@H](N)CCCCN)C(=O)N[C@@H](CCCCN)C(=O)N[C@@H](CCCCN)C(=O)N[C@@H](CO)C(=O)N[C@H](C(=O)N[C@@H](CCCCN)C(=O)N[C@@H](CCCCN)C(=O)N[C@@H](CCCNC(=N)N)C(=O)N[C@H](C(=O)N[C@@H](CCCCN)C(=O)N[C@@H](CCCCN)C(=O)N[C@@H](CC(C)C)C(=O)N[C@@H](Cc1ccccc1)C(=O)N[C@@H](CCCCN)C(=O)N[C@@H](CCCCN)C(=O)N1CCC[C@H]1C(=O)N[C@@H](CCCNC(=N)N)C(=O)N[C@H](C(=O)N[C@H](C(=O)N1CCC[C@H]1C(=O)N[C@H](C(=O)N[C@@H](CO)C(=O)N[C@H](C(=O)N1CCC[C@H]1C(=O)N[C@@H](Cc1ccccc1)C(=O)O)[C@@H](C)CC)[C@@H](C)CC)[C@@H](C)CC)C(C)C)C(C)C)C(C)C | Pseudomonas aeruginosa | – | P2 clinical isolate | 20 h | – | MBC | 16 µg/mL |
| CCCCCCCCCC(=O)OCCSC[C@H](N)C(=O)N[C@H](CCN)C(=O)N[C@@H](CCN)C(=O)N[C@@H](CCN)C(=O)N[C@@H](CC(C)C)C(=O)N[C@H](Cc1ccccc1)C(=O)N[C@@H](CCN)C(=O)N[C@@H](CCN)C(=O)N[C@@H](CC(C)C)C(N)=O | Acinetobacter calcoaceticus | BHI agar spot plating | – | 24 h, 37 °C | – | MBC | 32 µM |
| CC(C)[C@H]1NC(=O)[C@H](Cc2ccccc2)NC(=O)[C@@H](C(C)C)NC(=O)[C@@H](C)NC(=O)[C@H](CO)NC(=O)[C@@H](Cc2c(-c3ccc(-c4ccccc4)c(F)c3)[nH]c3ccccc23)NC(=O)[C@@H](CO)NC1=O | Mycobacterium marinum | – | – | – | – | MIC90 | 42.2 µM (≈ 40 µg/mL) |
| [O-][N+]1=C(c2ccsc2)C2=NCCCN2c2ccccc21 | Clostridioides difficile | microbial growth | – | – | – | MIC50 | 2 µg/mL (≈ 7.06 µM) |
| CCCC(C)Oc1cccc(NC(=O)c2cccnc2)c1 (centres unmarked) | Saccharomyces cerevisiae | – | S288c wild type | – | – | MIC50 | 16 µg/mL (≈ 56.3 µM) |
| COc1cc(Nc2ncnc3ccc(-c4ccc(S(=O)(=O)N5CCOCC5)cc4)cc23)ccc1OCc1cccc(F)c1 | Trypanosoma cruzi | intracellular amastigote growth, β-galactosidase CPRG | 3T3, Tulahuen, β-galactosidase-expressing | 10 µM, 96 h | – | inhibition | 2% |
| CC[C@H](C)[C@H](NC(=O)[C@H](CCCNC(=N)N)NC(=O)[C@H](CO)NC(=O)[C@H](Cc1ccc(O)cc1)NC(=O)[C@@H](NC(=O)[C@@H](NC(=O)[C@H](C)NC(=O)CNC(=O)[C@H](CCCCN)NC(=O)[C@H](CCCCN)NC(=O)CCNC(=O)CCCCCNC(=O)[C@H](CCCNC(=N)N)NC(=O)CCCCCNC(=O)[C@H](CCCNC(=N)N)NC(=O)[C@H](CCCNC(=N)N)NC(=O)CCCCCNC(=O)[C@H](CCCNC(=N)N)NC(=O)[C@H](CCCNC(=N)N)NC(=O)CCCCCNC(=O)[C@H](CCCNC(=N)N)NC(=O)[C@H](CCCNC(=N)N)NC(=O)CCCCCNC(=O)[C@@H](N)CCCNC(=N)N)C(C)C)[C@@H](C)O)C(=O)N[C@@H](CO)C(=O)NCC(=O)N[C@@H](CCC(N)=O)C(=O)N[C@@H](Cc1ccc(O)cc1)C(=O)N[C@@H](CCCCN)C(=O)O | Escherichia coli | – | ATCC 25922 | 1 h, 37 °C, after 25% human serum | – | MIC | 6 µM (≈ 21.4 µg/mL) |
| [O-][N+]1=C(c2ccc(Cl)cc2)C2=NCCCN2c2ccccc21 | Clostridioides difficile | microbial growth | – | – | – | MIC50 | 8 µg/mL (≈ 25.7 µM) |
| CCCCC(CC)COC(=O)CC(C(=O)OCC(CC)CCCC)S(=O)(=O)O.CCCSc1ccc2[nH]c(NC(=O)OC)nc2c1 (centres unmarked) | Cryptococcus neoformans | EUCAST broth microdilution | clinical isolate | 72 h, 37 °C, RPMI with 2% glucose | – | IC90 | 625 nM |
| CN(C)c1nc(NCc2ccc(Oc3ccccc3)cc2)c(/N=N/c2ccc(Cl)cc2)c(N(C)C)n1 | Ostrinia furnacalis | leaf dipping | – | 500 mg/L, 96 h | – | mortality | 100% |
| FC(F)(F)c1cccc(CNc2nc(NC3CCN(Cc4ccccc4)CC3)c3nc[nH]c3n2)c1 | Cryptococcus neoformans | RNA-seq, refers to: CNAG_05316 | – | 48 µg/mL, 3 h | relative to: untreated | mRNA fold change | 1.29 |
| CON(C(=O)c1cn(C)nc1C(F)F)C(C)Cc1c(Cl)cc(Cl)cc1Cl (centres unmarked) | Alternaria alternata | mycelial growth | – | 12 h | – | EC50 | 0.255 µg/mL (≈ 0.596 µM) |
| CN(CCO)CCO.O=C(O)C(Cl)Cl | Solanum nigrum | herbicidal activity | – | 15 mg/mL, 21 days, post-emergence greenhouse | – | inhibition | -60% |
| CC[C@H](C)CCCCC(=O)N[C@@H](CCN)C(=O)N[C@H](C(=O)N[C@@H](CCN)C(=O)N[C@H]1CCNC(=O)[C@H]([C@@H](C)O)NC(=O)[C@H](CCN)NC(=O)[C@H](CCN)NC(=O)[C@H](CC(C)C)NC(=O)[C@@H](CC(C)C)NC(=O)[C@H](CCN)NC1=O)[C@@H](C)O | Escherichia coli | daily serial passaging | ATCC 8739 | highest sub-MIC, 7 days | relative to: initial MIC | MIC fold change | 1.37 |
| CCOC(=O)C1(Cc2ccc([N+](=O)[O-])cc2)Oc2cc(F)ccc2N(Cc2ccc([N+](=O)[O-])cc2)C1=O (centres unmarked) | Setaria viridis | fresh weight, greenhouse postemergence | – | postemergence, 150 g ai/ha, 21 days | – | inhibition | 49.4 ± 0.62% |
| CC(C)[C@H]1NC(=O)[C@H](Cc2ccccc2)NC(=O)[C@@H](C(C)C)NC(=O)[C@@H](C)NC(=O)[C@H](CO)NC(=O)[C@@H](Cc2c(-c3ccc4c5ccccc5c5ccccc5c4c3)[nH]c3ccccc23)NC(=O)[C@@H](CO)NC1=O | Mycobacterium marinum | – | – | – | – | MIC90 | > 100 µM |
| COC(=O)C1=CO[C@@H](C)[C@@H]2Cn3ccc4c5ccccc5nc-4c3C[C@H]12 | Plasmodium falciparum | growth, [3H]-hypoxanthine uptake | FCR3 | 48 h | relative to: FCR3 IC50 over 3D7 IC50 | resistance index | 0.2 |
| CC[C@H](C)[C@@H]1NC(=O)[C@H](CO)NC(=O)CC(CCCCN)NC(=O)[C@@H]2CSSC[C@@H](C(=O)N[C@@H](Cc3ccc(O)cc3)C(N)=O)NC(=O)[C@H](CCCCN)NC(=O)[C@@H]3CSSC[C@H](NC(=O)[C@H](CCCNC(=N)N)NC(=O)CC(CC(C)C)NC(=O)[C@H](CC(=O)O)NC(=O)[C@H](CC(=O)O)NC(=O)[C@H](CCC(=O)O)NC(=O)[C@H](CC(N)=O)NC(=O)[C@H](Cc4c[nH]c5ccccc45)NC(=O)[C@@H]4CCCN4C(=O)CNC(=O)[C@H](CC(N)=O)NC(=O)[C@@H](NC(=O)CNC(=O)[C@H](Cc4ccccc4)NC(=O)CN)CSSC[C@H](NC(=O)[C@H](Cc4ccc(O)cc4)NC(=O)CNC(=O)CNC(=O)[C@H](CCCCN)NC(=O)[C@H](Cc4ccc(O)cc4)NC(=O)CNC(=O)[C@H](CCCCN)NC1=O)C(=O)N[C@@H](C)C(=O)N[C@@H](CCCCN)C(=O)NCC(=O)NCC(=O)N[C@@H](Cc1ccccc1)C(=O)N[C@@H](C(C)C)C(=O)N3)C(=O)N[C@@H](Cc1c[nH]cn1)C(=O)NC(CC(N)=O)CC(=O)N[C@@H](Cc1c[nH]cn1)C(=O)N2 (some centres unmarked) | Streptococcus pneumoniae | – | D39 | 24 h, 37 °C, 99.9% killing | – | MBC | 8 µM |
| O[C@]12C=C(c3nccc4c3[nH]c3ccccc34)[C@@H]3CCN(CCCC/C=C\CC1)C[C@@]31C[C@@H]3/C=C\CCCCN3[C@H]12 | Cryptococcus neoformans | – | ATCC 90113 | 5% bovine calf serum | – | IC50 | 6.61 µg/mL (≈ 12 µM) |
| CC(C)[C@H]1NC(=O)[C@H](Cc2ccccc2)NC(=O)[C@@H](C(C)C)NC(=O)[C@@H](C)NC(=O)[C@H](CO)NC(=O)[C@@H](Cc2c(-c3cccc(-c4ccccc4)c3)[nH]c3ccccc23)NC(=O)[C@@H](CO)NC1=O | Mycobacterium marinum | – | – | – | – | MIC90 | > 100 µM |
| CN(C)c1nc(NCc2ccc(F)cc2)c(/N=N/c2ccc(Cl)cc2)c(N(C)C)n1 | Ostrinia furnacalis | leaf dipping | – | 200 mg/L, 96 h | – | mortality | 100% |
| Cc1cc(C(=O)Nc2nc3cccc(C)c3n2[C@H]2CCCCN(C(=O)/C=C/CN(C)C)C2)ccn1 | Trypanosoma brucei | propidium iodide flow cytometry | bloodstream form | concentration not given, 48 h | – | cells in sub-G0 phase | 4.47% |
| CC[C@H](C)[C@@H]1NC(=O)[C@H](CO)NC(=O)[C@H](CCCCN)NC(=O)[C@@H]2CSSC[C@@H](C(=O)N[C@@H](Cc3ccc(O)cc3)C(N)=O)NC(=O)[C@H](CCCCN)NC(=O)[C@@H]3CSSC[C@H](NC(=O)[C@H](CCCNC(=N)N)NC(=O)[C@H](CC(C)C)NC(=O)[C@H](CC(=O)O)NC(=O)[C@H](CC(=O)O)NC(=O)[C@H](CCC(=O)O)NC(=O)[C@H](CC(N)=O)NC(=O)[C@H](Cc4c[nH]c5ccccc45)NC(=O)[C@@H]4CCCN4C(=O)CNC(=O)[C@H](CC(N)=O)NC(=O)[C@@H](NC(=O)CNC(=O)[C@H](Cc4ccccc4)NC(=O)CN)CSSC[C@H](NC(=O)[C@H](Cc4ccc(O)cc4)NC(=O)CNC(=O)CNC(=O)[C@H](CCCCN)NC(=O)[C@H](Cc4ccc(O)cc4)NC(=O)CNC(=O)[C@H](CCCCN)NC1=O)C(=O)N[C@@H](C)C(=O)N[C@@H](CCCCN)C(=O)NCC(=O)NCC(=O)N[C@@H](Cc1ccccc1)C(=O)N[C@@H](C(C)C)C(=O)N3)C(=O)N[C@@H](Cc1c[nH]cn1)C(=O)N[C@@H](CC(N)=O)C(=O)N[C@@H](Cc1c[nH]cn1)C(=O)N2 | Streptococcus pneumoniae | – | D39 | 24 h, 37 °C, 99.9% killing | – | MBC | 0.13 µM |
| CCc1nn(C)c2nc(-c3ccc(C(=O)O)cc3)nc(NCc3ccccc3)c12 | Cryptosporidium parvum | – | HCT-8 | 6 x EC90, 6 h | relative to: DMSO control | parasite number | 70.4% and 62.1% and 88.8% and 77.4% |
| O=S(=O)(c1ccc(-c2ccc3ncnc(Nc4ccc(OCc5cccc(Cl)c5)c(Cl)c4)c3c2)cc1)N1CCOCC1 | Trypanosoma cruzi | intracellular amastigote growth, β-galactosidase CPRG | 3T3, Tulahuen, β-galactosidase-expressing | 10 µM, 96 h | – | inhibition | 4% |
| CC(C)[C@H]1NC(=O)[C@H](Cc2ccccc2)NC(=O)[C@@H](C(C)C)NC(=O)[C@@H](C)NC(=O)[C@@H](CO)NC(=O)[C@@H](Cc2c(-c3ccc(-c4ccc5ccccc5c4)cc3)[nH]c3ccccc23)NC(=O)[C@@H](CO)NC1=O | Mycobacterium marinum | – | – | – | – | MIC90 | > 100 µM |
| O=S(=O)(c1ccc(-c2ccc3ncnc(Nc4ccc(OCc5ccc(C(F)(F)F)c(F)c5)c(Cl)c4)c3c2)cc1)N1CCOCC1 | Trypanosoma cruzi | intracellular amastigote growth, β-galactosidase CPRG | 3T3, Tulahuen, β-galactosidase-expressing | 10 µM, 96 h | – | inhibition | 21% |
| CC[C@H](C)[C@H](NC(=O)[C@H](CC(N)=O)NC(=O)[C@H](CC(C)C)NC(=O)[C@@H](NC(=O)[C@@H](N)Cc1ccccc1)[C@@H](C)CC)C(=O)N[C@@H](CC(C)C)C(=O)N[C@@H](CC(=O)O)C(=O)N[C@@H](CCCCN)C(N)=O | Gram-positive bacteria | – | – | – | – | geometric mean MIC | 256 µM |

A few entries again:
| SMILES | organism | assay | system | setting | scale | measurement | value |
| --- | --- | --- | --- | --- | --- | --- | --- |
| CN(C)c1nc(NCc2ccc(Oc3ccccc3)cc2)c(/N=N/c2ccc(Cl)cc2)c(N(C)C)n1 | Ostrinia furnacalis | leaf dipping | – | 500 mg/L, 96 h | – | mortality | 100% |
| COc1cc(Nc2ncnc3ccc(-c4ccc(S(=O)(=O)N5CCOCC5)cc4)cc23)ccc1OCc1cccc(F)c1 | Trypanosoma cruzi | intracellular amastigote growth, β-galactosidase CPRG | 3T3, Tulahuen, β-galactosidase-expressing | 10 µM, 96 h | – | inhibition | 2% |
| CCCC(C)Oc1cccc(NC(=O)c2cccnc2)c1 (centres unmarked) | Saccharomyces cerevisiae | – | S288c wild type | – | – | MIC50 | 16 µg/mL (≈ 56.3 µM) |
